Measured values from different studies.
± marks the error that the study gave.
Nicotinic acetylcholine receptor alpha9/alpha10: Nicotinic acetylcholine receptor alpha9/alpha10 (Rattus norvegicus, UniProt P43144+Q9JLB5)
LRRC8A/LRRC8C E6A: LRRC8A/LRRC8C (Homo sapiens, UniProt Q8IWT6+Q8TDW0, E6A)

Compound	target	assay	test system	conditions	Hill coefficient
N#Cc1ccc2[nH]cc(CCCCN3CCN(c4ccc5oc(C(N)=O)cc5c4)CC3)c2c1	SLC6A4 (Homo sapiens, UniProt P31645, F556A/Y95F)	[3H]5-HT uptake, inhibitor	COS-7	–	1.1 ± 0.14
Nc1nc2c(ncn2[C@@H]2O[C@@H]3COP(=O)(O)O[C@H]3[C@H]2O)c(=O)[nH]1	Cone cGMP-gated channel (Morone saxatilis, UniProt Q3I0N1+Q3I0N2)	channel current, agonist, suction electrode	cone outer segments	single cone shown, together with: 5 µM Ca2+	2.5
Cc1nccn1CC1CCc2c(c3ccccc3n2C)C1=O (stereo not drawn)	Htr3a (Mus musculus, UniProt P23979, W183X)	antagonist, voltage clamp	Xenopus oocytes	–	-1.8 ± 0.1
Cc1ccc(N(C)C(=O)/C=C/c2ccco2)cc1	Nicotinic acetylcholine receptor alpha9/alpha10	inhibitor	–	together with: ACh 10 µM	1.6 ± 0.2
[Cl-].[Cl-].[Zn+2]	HVCN1 (Homo sapiens, UniProt Q96D96, E119H)	whole-cell voltage clamp	–	120 mV, open probability 0.3	1.4
O=C(Nc1cccc2c(=O)cc(-c3nnn[nH]3)oc12)c1ccc(OCCCCc2ccccc2)cc1	LRRC8A/LRRC8C E6A	whole-cell patch clamp	HCT116 LRRC8-/- expressing heteromers	+100 mV	1.39
O=C1Nc2c(ccc(Cl)c2Cl)C1=NO	KCNN4/CALM1 (Homo sapiens, UniProt O15554+P0DP23, L185A/S181A)	activator, whole-cell patch clamp	HEK293 (S181A-L185A mutant)	–	1.6
CCCCCCCC/C=C\CCCCCCCC(=O)NCCc1ccc(O)c(O)c1	Trpv1 (Mus musculus, UniProt Q704Y3, T557S)	ion current, agonist, whole-cell patch clamp	–	T557S	2.59 ± 0.33
CN(C)C(=O)C(CCN1CCC(O)(c2ccc(Cl)cc2)CC1)(c1ccccc1)c1ccccc1	Calcium-activated potassium channel subunit alpha-1, with LRRC26 γ1 subunit (KCNMA1, Homo sapiens, UniProt Q12791)	BK channel conductance, inside-out patch clamp	–	BKα/γ1, Vm 20 mV, nominally Ca2+-free	0.945 ± 0.22
Cc1ccc(NC(=O)/C=C/c2cccs2)cc1	Nicotinic acetylcholine receptor alpha9/alpha10	inhibitor	–	together with: ACh 100 µM	1.7 ± 0.2
N=C(N)Nc1nc2ccccc2[nH]1	HVCN1 (Homo sapiens, UniProt Q96D96, F150A/F182A)	proton current, inhibitor, inside-out patch clamp	–	–	0.88 ± 0.02
COc1cc(C(=O)NS(=O)(=O)c2ccccc2C)ccc1Cc1cn(C)c2ccc(NC(=O)OC3CCCC3)cc12	LRRC8A/LRRC8C E6A	whole-cell patch clamp	HCT116 LRRC8-/- transfected	at +100 mV	1.39
